Measurements gathered from unrelated publications.
Parts stem from different laboratories: compare values within a part only.

Set 1 — method: protein binding microarray; form: double-stranded DNA, one strand shown; matrix: in vitro; concentration: not given; baseline: not given; reading: higher = stronger binding; quantity: E-score
Target: Histone acetyltransferase KAT6A, winged helix 2, GST fusion (KAT6A, Homo sapiens, UniProt Q92794, residues 85-181)
Notes: 8-mer, flanks averaged, mean of 2 arrays, mostly near background
Residues (chain): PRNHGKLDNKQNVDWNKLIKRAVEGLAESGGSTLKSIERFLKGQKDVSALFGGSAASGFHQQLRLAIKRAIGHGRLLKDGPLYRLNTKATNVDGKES
GGTTATAC: -0.239
CGGGAGTC: 0.0073
ACAACAAT: -0.0712
AACTTGCG: 0.185
AATGATTC: 0.105

Set 2 — method: universal PBM; form: double-stranded DNA, one strand shown; matrix: in vitro; concentration: 600 nM; reading: higher = stronger binding; quantity: E-score
Target: Sal-like protein 4, full length isoform A (SALL4, Homo sapiens, UniProt Q9UJQ4, residues 1-1053)
Sequence of UniProt Q9UJQ4 (whole entry, looked up): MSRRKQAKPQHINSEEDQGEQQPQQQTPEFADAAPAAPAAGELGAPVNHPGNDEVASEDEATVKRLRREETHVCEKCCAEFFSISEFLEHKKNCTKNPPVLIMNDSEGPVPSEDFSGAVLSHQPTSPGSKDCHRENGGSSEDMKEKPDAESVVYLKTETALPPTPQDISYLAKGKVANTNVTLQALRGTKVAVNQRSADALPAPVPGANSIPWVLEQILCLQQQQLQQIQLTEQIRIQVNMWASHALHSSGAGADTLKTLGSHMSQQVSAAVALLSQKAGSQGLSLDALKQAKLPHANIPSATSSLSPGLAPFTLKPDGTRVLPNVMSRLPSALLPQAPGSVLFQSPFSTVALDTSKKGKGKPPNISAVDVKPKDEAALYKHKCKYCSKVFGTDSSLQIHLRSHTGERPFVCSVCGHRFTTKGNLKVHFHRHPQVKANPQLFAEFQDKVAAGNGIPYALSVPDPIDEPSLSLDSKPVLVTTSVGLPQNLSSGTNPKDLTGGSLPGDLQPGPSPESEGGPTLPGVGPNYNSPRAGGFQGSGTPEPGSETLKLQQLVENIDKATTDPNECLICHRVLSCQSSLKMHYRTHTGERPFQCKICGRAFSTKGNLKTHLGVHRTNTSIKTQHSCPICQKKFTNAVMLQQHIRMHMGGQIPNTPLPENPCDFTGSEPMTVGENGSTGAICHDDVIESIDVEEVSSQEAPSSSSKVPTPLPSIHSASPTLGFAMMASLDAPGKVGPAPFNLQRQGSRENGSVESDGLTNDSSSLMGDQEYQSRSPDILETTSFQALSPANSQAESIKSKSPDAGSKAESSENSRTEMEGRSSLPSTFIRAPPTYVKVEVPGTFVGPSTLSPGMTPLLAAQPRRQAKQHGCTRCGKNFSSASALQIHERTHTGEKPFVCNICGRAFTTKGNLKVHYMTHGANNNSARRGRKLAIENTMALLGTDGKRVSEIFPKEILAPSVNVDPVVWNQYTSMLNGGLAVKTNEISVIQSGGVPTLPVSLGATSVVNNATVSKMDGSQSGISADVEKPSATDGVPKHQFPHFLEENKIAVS
Notes: 8-mer, flanks averaged, mean of replicates
ATCCTTGG: 0.0037
CGGGTCGA: -0.342
CCATGCCA: -0.149
CTCCAGTA: 0.0833
AGTCGTTG: -0.206
CGTCGTAA: -0.00675

Set 3 — method: protein-binding microarray; form: double-stranded DNA, one strand shown; matrix: in vitro; concentration: 250 nM; notes: 60-bp whole probe; with: salmon DNA 0.4 mg/ml; baseline: random background probes; reading: higher = stronger binding; quantity: log fluorescence
Target: Interferon regulatory factor 7, full length, phosphomimetic (IRF7, Homo sapiens, UniProt Q92985, residues 1-503, S101K/S471D/S472D/S475D/S476D/S477D/S483D/S484D/S487D)
Sequence of UniProt Q92985 (whole entry, unmodified, looked up): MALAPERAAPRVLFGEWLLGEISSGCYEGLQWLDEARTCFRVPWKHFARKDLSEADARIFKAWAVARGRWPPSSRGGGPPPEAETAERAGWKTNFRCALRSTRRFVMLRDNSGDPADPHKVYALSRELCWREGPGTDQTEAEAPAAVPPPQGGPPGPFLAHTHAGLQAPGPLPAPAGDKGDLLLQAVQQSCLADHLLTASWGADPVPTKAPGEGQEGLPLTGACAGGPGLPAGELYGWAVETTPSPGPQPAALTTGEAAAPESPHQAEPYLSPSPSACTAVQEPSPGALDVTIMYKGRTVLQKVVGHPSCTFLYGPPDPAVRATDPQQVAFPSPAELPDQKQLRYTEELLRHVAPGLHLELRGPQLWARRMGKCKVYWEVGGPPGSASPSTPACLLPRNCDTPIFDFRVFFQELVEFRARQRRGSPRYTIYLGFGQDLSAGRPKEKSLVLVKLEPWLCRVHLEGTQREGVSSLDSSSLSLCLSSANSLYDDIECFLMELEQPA
GCCTAGCACATAGGTTCCCTTTTCCTTTAGTGCTAGGTCTTGATTCGCTTGACGCTGCTG: 4.02 z-score
GCCTAGCACTCATCCATGCTCTGTCGCACTGTGCTAGTCTTGATTCGCTTGACGCTGCTG: -0.0809 z-score
GCCTAGCACTTCGGACTGGACTTTCGGTTAGTGCTAGTCTTGATTCGCTTGACGCTGCTG: 0.348 z-score

Mixed results
PhoQ, residues 284 288 289 292 302 303 AGHLVA
fold induction (PhoP, residues 12 14 15 18 19 YHFSH (Escherichia coli, UniProt P23836); Sort-seq, measured: YFP reporter; E. coli; PhoQ-PhoP variant library, with: 10 µM Mg2+; baseline: high Mg2+ state, higher = stronger signaling): 1.29

Some of these lines once more (set 2):
CCATGCCA: -0.149
